Published values pooled from the literature.
Every numbered part comes from another study and shows a few of its results, in no order. Substitutions count along the parent as printed.

Set 1
Target: ABI1, truncated, D143A, DHFR fusion (Arabidopsis thaliana)
Technique: DHFR PCA, deep sequencing
Sample: yeast
Notes: methotrexate growth selection, single substitutions
With: (+)-ABA 0.0091 µM
Reference: wild-type fitted maximum
Reading: higher = stronger binding
Starting sequence: PYL1, truncated, DHFR fusion (Arabidopsis thaliana); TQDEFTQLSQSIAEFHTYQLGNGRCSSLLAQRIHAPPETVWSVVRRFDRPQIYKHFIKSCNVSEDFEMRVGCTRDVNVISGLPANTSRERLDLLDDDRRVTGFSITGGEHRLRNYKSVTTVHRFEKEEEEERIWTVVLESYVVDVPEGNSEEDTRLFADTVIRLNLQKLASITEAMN; partner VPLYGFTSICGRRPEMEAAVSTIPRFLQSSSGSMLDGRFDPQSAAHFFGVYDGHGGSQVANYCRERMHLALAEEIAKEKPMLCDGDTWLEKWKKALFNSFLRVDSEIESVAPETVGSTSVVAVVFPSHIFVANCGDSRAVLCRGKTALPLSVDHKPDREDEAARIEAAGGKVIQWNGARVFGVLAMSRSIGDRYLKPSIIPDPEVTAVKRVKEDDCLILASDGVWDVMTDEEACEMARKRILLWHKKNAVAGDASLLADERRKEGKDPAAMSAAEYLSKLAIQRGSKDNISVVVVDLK
`A13H` — result for “relative binding score”: 15.7%.
`V145W` — result for “relative binding score”: -6.53%.
`Y18M`: “relative binding score” 1.61%.
Under “relative binding score”, `N165G` is recorded as 1.36%.
`W41E`: “relative binding score” -6.59%.
`S26A`: “relative binding score” 27.2%.
Under “relative binding score”, `G148P` is recorded as 0.761%.
Under “relative binding score”, `A30I` is recorded as 8.78%.
Under “relative binding score”, `A158L` is recorded as 54.8%.
`I57A`: “relative binding score” -5.09%.
`T101I` — result for “relative binding score”: 87.2%.

Set 2
Target: Ras GTPase-activating protein-binding protein 1, full length (G3BP1, Homo sapiens, UniProt Q13283)
Chain of UniProt Q13283 (whole entry, looked up): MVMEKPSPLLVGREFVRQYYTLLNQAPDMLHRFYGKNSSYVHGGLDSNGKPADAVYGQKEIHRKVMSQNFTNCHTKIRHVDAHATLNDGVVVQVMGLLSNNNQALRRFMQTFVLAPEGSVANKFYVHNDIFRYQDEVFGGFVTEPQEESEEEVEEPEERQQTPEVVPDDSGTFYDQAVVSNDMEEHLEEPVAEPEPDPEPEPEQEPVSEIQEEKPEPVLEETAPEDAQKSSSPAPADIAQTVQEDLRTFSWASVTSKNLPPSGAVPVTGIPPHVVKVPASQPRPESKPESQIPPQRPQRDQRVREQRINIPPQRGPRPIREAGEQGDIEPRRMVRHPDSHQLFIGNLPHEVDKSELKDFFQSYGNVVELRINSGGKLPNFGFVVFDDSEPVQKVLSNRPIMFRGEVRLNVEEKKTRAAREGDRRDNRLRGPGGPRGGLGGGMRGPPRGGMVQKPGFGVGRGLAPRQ
Technique: RNA Bind-n-Seq
Form: RNA
Sample: in vitro
Concentration: 200 nM
Notes: whole 134-nt RNA, ends assumed
With: 150 mM LiCl
Reference: input library
Reading: higher = stronger binding
All molecules: 7-deaza-guanosine replaces G
Constant ends, left off below: GGGAGUUCUACAGUCCGACGAUC … UGGAAUUCUCGGGUGUCAAGG
The log2 enrichment of `UUAUCACCAGGACUGCCAUGUUCCCAGGGCUCCAGCCCCUGGAGAGGGAGAGGGCACAUCCUGGGUAUGCCGCCAGUGUGUCUUUGCGAU` is reported as -0.958.
For `GCAGGAAGUAAAAACAAAUGGAAAUGCUUCGGAUAGUGGCAGGGGUGGGGGUUGCUAAGGAAAGGGUGGGAUGGGAGUGGGUAAAGCGUU`, the log2 enrichment was -0.0228.
`UGGCCCUGGUGGCAUGCGGGGAGGAAGAGGUGGCCUCAUGGAUCGUGGUGGUCCCGGUGGAAUGUUCAGAUGUGGCCGUGGUGGAGACAG` has a log2 enrichment of -0.0517.
For `UCAAGUCCUGUGCUACACAUCGUAUGUACCGAAUCGGAGGAAAAAAAGGUUUGGAAAGUAUUAUGUUACGCCGUUCGGAUCUGCACUUCC`, the log2 enrichment was -1.12.
`UAACUUUAGCGGAGGAUCUGAUGGAUAUGGCAGUGGACGUGGAUUUGGGGAUGGCUAUAAUGGGUAUGGAGGAGGACCUGGAGGUGGCAA` has a log2 enrichment of -0.0911.
With `UGGCCCUGGUGGCAUGCGGGGAGCAAGAGGUGGCCUCAUGGAUCGUGGUGGUCCCGGUGGAAUGUUCAGAGGUGGCCGUGGUGGAGACAG` the log2 enrichment was 0.47.
For `AGGUCAUGGAUCAAAAAGAACAUAAAUUGAAUGGGAAGGUGAUUGAUCCUAAAAGGGCCAAAGCCAUGAAAACAAAAGAGCCGGUUAAAA`, the log2 enrichment was -1.24.
The log2 enrichment of `CACAGACAACACGCACCCACACAGACACAGAGGGAUGGGGUUGGGAUGGGGACAGGGUGCACAGCAGGGCGGGGUAGGACCCCAGCCCCU` is reported as -0.393.
With `CAAGUCCUGUGCUACACAUCGUAUGUACCGAAUCGGGAAAGGAAAGGGGAAAGGGGAAAGUAUUAUGUUACGCCGUUCGGAUCUGCACUU` the log2 enrichment was -0.165.

Further values, each from its own experiment
The enrichment score of `LLKRLQDVVSERA` is reported as -1.04 (Saccharomyces cerevisiae; peptide binding, yeast competitive growth sequencing; peptide, cyclin F-Cln2 fusion; library 2; direction not given).
With `PhoQ, residues 284 288 289 292 302 303 GNNTDL` the fold induction was 4.61 (PhoP, residues 12 14 15 18 19 MHTVL (Escherichia coli, UniProt P23836); Sort-seq, item: YFP reporter; E. coli; PhoQ-PhoP variant library, with: 10 µM Mg2+; reference: high Mg2+ state, higher = stronger signaling).
`ASPLKKLFTSTGL` has an enrichment score of -0.664 (Saccharomyces cerevisiae; peptide binding, yeast competitive growth sequencing; peptide, cyclin E2-Cln2 fusion; library 1; direction not given).

Excerpt of the above (set 2):
For `AGGUCAUGGAUCAAAAAGAACAUAAAUUGAAUGGGAAGGUGAUUGAUCCUAAAAGGGCCAAAGCCAUGAAAACAAAAGAGCCGGUUAAAA`, the log2 enrichment was -1.24.
The log2 enrichment of `CACAGACAACACGCACCCACACAGACACAGAGGGAUGGGGUUGGGAUGGGGACAGGGUGCACAGCAGGGCGGGGUAGGACCCCAGCCCCU` is reported as -0.393.
With `CAAGUCCUGUGCUACACAUCGUAUGUACCGAAUCGGGAAAGGAAAGGGGAAAGGGGAAAGUAUUAUGUUACGCCGUUCGGAUCUGCACUU` the log2 enrichment was -0.165.
